Assay results pooled from the literature.
Each numbered part is a random draw from the data of one study; scales do not carry over between parts. Changes are numbered by the printed parent chain.

Study 1
Target: ABI1, truncated, D143A, DHFR fusion (Arabidopsis thaliana)
Method: DHFR PCA, deep sequencing
Medium: yeast
Setting: methotrexate growth selection, single substitutions
With: (+)-ABA 200 µM
Baseline: wild-type fitted maximum
Direction: higher = stronger binding
Quantity: relative binding score
Parent: PYL1, truncated, DHFR fusion (Arabidopsis thaliana); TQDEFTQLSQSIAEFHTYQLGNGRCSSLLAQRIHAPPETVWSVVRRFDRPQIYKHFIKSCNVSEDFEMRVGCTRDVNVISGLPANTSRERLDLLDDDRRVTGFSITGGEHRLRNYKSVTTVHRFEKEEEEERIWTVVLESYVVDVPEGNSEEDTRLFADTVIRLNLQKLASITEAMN
V43H: 81.9%
S42G: 98.3%
L28D: -2.17%
T160N: 84%
S11E: 104%
V78C: 103%
V142P: -13%
A158M: 84.4%
E67D: 98.2%
E14Y: 76.7%
R49M: 94.9%
V44Q: 5.74%
D144W: 25.2%
G102K: 75.7%
F47K: -9.22%
G81D: 49.2%
Y18F: 89.5%
R69Y: 94.9%
V76H: 7.72%
F15L: 84.3%
R46S: 94.8%
C60Q: 19.4%
T173P: 10.9%
T106N: 69.8%
P50N: -8.17%

Study 2
Target: Sal-like protein 4, full length isoform B (SALL4, Homo sapiens, UniProt Q9UJQ4-2, residues 1-616)
Method: universal PBM
Molecule type: double-stranded DNA, one strand shown
Medium: in vitro
Tested at: not given
Setting: 8-mer, flanks averaged, mean of replicates
Direction: higher = stronger binding
Quantity: E-score
CCTTTTTC: -0.0236
GGGATTAA: -0.0134
CCTGCGGC: -0.389
TGGGGACA: -0.0892
TATTACCA: 0.363
ATCGAATG: 0.132
CCACGCCC: -0.31
GGCGGACC: -0.413
CCTTGGGA: -0.165
ACGTATTC: 0.123
CACCCGCC: -0.21
CTCCTACC: -0.0841
ACGGTTCT: -0.137
CAATAGAC: 0.149
CAGGCCCC: -0.443
AGCCACCC: -0.232
CGGGCAAC: -0.324
TCGAAAAA: 0.266
TGCACGAA: 0.167
GCGTCTCA: -0.29
CAAGGACC: -0.154
CCTCGCAG: -0.215
AGTCAAAC: -0.0944
AGTACAGC: -0.115
AATCCCAG: -0.0729

Study 3
Target: Interferon regulatory factor 7, full length, phosphomimetic (IRF7, Homo sapiens, UniProt Q92985, residues 1-503, S101K/S471D/S472D/S475D/S476D/S477D/S483D/S484D/S487D)
Method: protein-binding microarray
Molecule type: double-stranded DNA, one strand shown
Medium: in vitro
Tested at: 250 nM
Setting: 60-bp whole probe
With: salmon DNA 0.4 mg/ml
Baseline: random background probes
Direction: higher = stronger binding
Quantity: log fluorescence
All sequences stand within: GCCTAGCAC … GTCTTGATTCGCTTGACGCTGCTG
Target sequence (chain): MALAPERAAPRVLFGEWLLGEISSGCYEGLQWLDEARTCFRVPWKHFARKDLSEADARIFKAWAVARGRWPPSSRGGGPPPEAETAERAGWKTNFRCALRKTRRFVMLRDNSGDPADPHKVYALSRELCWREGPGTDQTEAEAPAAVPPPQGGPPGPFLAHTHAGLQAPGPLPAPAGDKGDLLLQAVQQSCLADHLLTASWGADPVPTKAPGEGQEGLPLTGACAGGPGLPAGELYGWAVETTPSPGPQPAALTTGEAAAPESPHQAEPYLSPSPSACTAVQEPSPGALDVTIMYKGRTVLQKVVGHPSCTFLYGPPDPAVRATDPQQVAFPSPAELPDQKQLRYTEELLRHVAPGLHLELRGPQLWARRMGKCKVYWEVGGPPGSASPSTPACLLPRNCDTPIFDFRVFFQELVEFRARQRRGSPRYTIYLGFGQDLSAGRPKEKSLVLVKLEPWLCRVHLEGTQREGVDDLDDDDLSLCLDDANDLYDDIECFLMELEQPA
TTAGGTTTCGGGCTGGGTTAGTGCTAG: 2.91 z-score
TTAGGTTTCGGGGATCGGTTAGTGCTA: 2.43 z-score
TTAGATATCAGTCTCGACTAGTGCTAG: 0.352 z-score
GACGAGTTCGGGACTGGAGACGTGCTA: -0.304 z-score
GACGGTTTCCTTTTCCTCACGTGCTAG: 6.91 z-score
TTAGGCATCGGTCTCGGTTAGTGCTAG: 1.47 z-score
CTGCCTGCTCAGACTGGGGCGTGCTAG: -0.416 z-score
TCAATTTTCTGAATGCCACTGTGCTAG: 1.27 z-score
TTAGGTATCGGGACTGGGTTCGTGCTA: 0.0703 z-score
GGCGGTATCGGGACTGGGGACGTGCTA: -0.297 z-score
GACGGTATCCTTTTCCTGTCGTGCTAG: 1.47 z-score
GTAGATATCAGTTTCGATTAGTGCTAG: 8.25 z-score
TCAACTTGGAATTTCCCACTGTGCTAG: 0.456 z-score
TTAGGACTGGGGTATCGGGTAGTGCTA: -0.168 z-score
CTCCACTTGTGTTTGGGCATGTGCTAG: -0.0139 z-score
TTAGAACTAAGACTGGATTAGTGCTAG: 0.103 z-score
TTAGGACTGGTACTGGGTTAGTGCTAG: -0.143 z-score

Study 4
Target: Protein max, full length (MAX, Homo sapiens, UniProt P61244-2, residues 1-151)
Method: protein-binding microarray
Molecule type: double-stranded DNA, one strand shown
Medium: in vitro
Tested at: not given
Setting: k-mer, scored over probes, only values ≥0.25
Direction: higher = stronger binding
Quantity: E-score
AGTGCGTG: 0.327
ACGTGAGG: 0.383
ATGTGAAC: 0.287
CCACGTGC: 0.497
AACTCGTG: 0.391
CATGGCGA: 0.283
CACGCACC: 0.369
ACCACGCC: 0.395
GCGTGATA: 0.391
ATGTGACG: 0.357
AAGCACGG: 0.253
AACCACAT: 0.321
GCGTGTTA: 0.398
AATGTGGC: 0.292
GCACGCTA: 0.4
ATGCGCGC: 0.274
CCATGTGC: 0.487
CGTGATGA: 0.294
ACGCTGAC: 0.307

Study 5
Target: RING finger protein unkempt homolog, zinc fingers 1-6, GST-SBP tag (UNK, Homo sapiens, UniProt Q9C0B0, residues 30-357)
Sequence of UniProt Q9C0B0 (30-357, looked up): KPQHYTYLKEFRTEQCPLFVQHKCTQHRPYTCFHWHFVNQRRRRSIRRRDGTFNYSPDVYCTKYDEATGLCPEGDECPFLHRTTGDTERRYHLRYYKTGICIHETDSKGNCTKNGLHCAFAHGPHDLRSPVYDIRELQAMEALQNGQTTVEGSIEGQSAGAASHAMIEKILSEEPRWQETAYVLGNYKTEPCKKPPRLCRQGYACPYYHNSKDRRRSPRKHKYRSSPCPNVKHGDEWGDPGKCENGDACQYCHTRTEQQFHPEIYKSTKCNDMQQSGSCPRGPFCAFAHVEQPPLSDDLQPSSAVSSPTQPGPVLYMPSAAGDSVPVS
Method: RNA Bind-n-Seq
Molecule type: RNA
Medium: in vitro
Tested at: not given
Setting: RNA with constant flanks, ends assumed
Baseline: input RNA pool
Direction: higher = stronger binding
Quantity: bound/input enrichment
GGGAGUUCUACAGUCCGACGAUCGAGGCCCUGAAGAUCUUCCAGAAAAUAAAGGAUGAAAAGAGCCCAGAGUGGUCCAAAUUUUCCGGAUUGAUCAAAAAAUUUGUCACUGAUUCCAAUGCAGUGGUUCAAUUGAAAGGAUUACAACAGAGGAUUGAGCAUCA: 0.114 ratio
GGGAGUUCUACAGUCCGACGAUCACUGAAGAAGAUGAUGAUGGGGAAUUAGCACUGUGGUCCCCUGAAGUCAAGAUUGUUGAACCCGUAAAAGAUUGUAAAGGUUUGGGAUUCAGCAUUUUGGAUUACCAGGACCCUUUAGAUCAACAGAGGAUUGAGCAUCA: 0.208 ratio
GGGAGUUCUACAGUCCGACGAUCAUUGUUGAAGCUAACCCACUCCUAGAAGCCUUUGGAAAUGCGAAGACUGUUCGCAACAAUAACCGCAGUCGAUUUGGGAAAUUUGUAGAAAUACAUUUUAAUGAAAAGAGCUCAGUUGUUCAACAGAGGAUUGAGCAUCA: 0.298 ratio
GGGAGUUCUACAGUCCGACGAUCGUGUGUGGGGUAGCCUUGGCCCCUGCCUUGGCCUUGCCUCUCUUCCCUGUCACCUGCCCCCCGUUAUUUUUUUUUUGACCACCACGUGAUUAUGGUCGGUGCUGCCUCCCCCCCGACCUGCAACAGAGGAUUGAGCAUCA: 4.82 ratio
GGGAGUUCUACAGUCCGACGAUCCCUGCAAUUGUUCAUAUUAACCACCAGCCAUACUUGGAAAGGGGAGAUGGCCCAAUCUGUCCCGUUCUGGCUCCUACCAGAGAGCUUGCCCAGCAAGUACAGCAGGUGGCCGAUGACUAUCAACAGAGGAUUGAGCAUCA: 0.155 ratio
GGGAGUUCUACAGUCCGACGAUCAGAUUAGGCCAUGAUCCCUACAGACUAACUCCGGAUCCCUAUAGGGUAUCACCUAGGCCCUACCGAACCGCACCCAGGUCCUAUAGGAUAGCACCUAGGCCAUACAGGUUAGCACCUAGACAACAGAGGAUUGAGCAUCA: 0.818 ratio
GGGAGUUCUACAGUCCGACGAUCAUUCUUACAGAUAAAAACUGUAUAUGUUUAUAAAUAGUUAUAAAGAACUAUUUUAUAUAACCGCUAUUAUCAUUGUAGAAAUGACUUACAAAUACAAAAUGUGUAUGUAAAUACUUUCUGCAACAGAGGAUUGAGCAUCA: 0.215 ratio
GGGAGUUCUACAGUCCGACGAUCCAAACCUGCAAUCCUGGAGAAGUAGGGCGAACAGAUAAGGAAAGAAAAAAAUUGAAGCCGGACUUUGGGGCCAAGGGGAGUUCUUUCAAUGCACUCCCCCUUUCUCCCCACCGCCACAGCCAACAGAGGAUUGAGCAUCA: 0.536 ratio
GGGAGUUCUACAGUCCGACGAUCGACCCCUUGAUGGCCCAAGAAUCCCAUAUGCUAGCUUCUAACACCAUGGAGACCCAUAUGUCCGCAUCCAAUACCAUGGACUCCCAGAUGCUAGCAUCCAACACUAUGGAUUCUCAGAUGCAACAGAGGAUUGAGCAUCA: 0.195 ratio
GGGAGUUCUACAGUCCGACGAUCUCUCAGACUCCAGCUUCCAGCCCUACGUUCUUCCAGGCAGAGCUAUGGAUCAAAGAAUUAACCCGCGUUUAUGACUCUCGAGCUCGGGAAAGAUUGCGCCGGAUUGAAGAGCAGAAAGCACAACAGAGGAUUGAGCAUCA: 0.284 ratio
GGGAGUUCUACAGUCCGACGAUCCCUAGUAAAGAUGUUGUGAUGGUACAUGAACCAAAACAAAAAGUAGAUUUAACAAGGUACCCCGAAAACCAAACAUUUCGUUUUGAUUAUGCCUUUGAUGACUCAGCUCCUAAUGAAAUGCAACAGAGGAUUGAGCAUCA: 8.15 ratio

Study 6
Target: Histone acetyltransferase KAT6A, both winged helices, GST fusion (KAT6A, Homo sapiens, UniProt Q92794, residues 1-181)
Method: protein binding microarray
Molecule type: double-stranded DNA, one strand shown
Medium: in vitro
Tested at: not given
Setting: 8-mer, flanks averaged, mean of 2 arrays, mostly near background
Baseline: not given
Direction: higher = stronger binding
Quantity: E-score
Target sequence (chain): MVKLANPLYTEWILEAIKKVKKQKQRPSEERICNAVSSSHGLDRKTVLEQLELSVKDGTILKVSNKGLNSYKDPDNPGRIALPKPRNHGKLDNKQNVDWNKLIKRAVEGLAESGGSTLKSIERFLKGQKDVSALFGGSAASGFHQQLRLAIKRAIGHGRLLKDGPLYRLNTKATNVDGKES
GGGAATAC: 0.0489
ATATCCGG: 0.134
CTATCCAA: -0.0373
AAATTTCA: -0.265
CACTAGGG: -0.141
AATAGCTG: -0.118
GGTGATAC: -0.0674
CAACTGCG: 0.171
ATCCACGA: -0.0945
AAATAGTA: -0.137
CCGAGGCG: 0.218
CCATTCCG: 0.0714
CATGGGAA: 0.0135
CAGAAGTA: -0.107
CCCACTCG: -0.099
CATAACAC: -0.173

Excerpt of the above (study 4):
ATGTGAAC: 0.287
ACGCTGAC: 0.307
ACCACGCC: 0.395
GCGTGATA: 0.391
CACGCACC: 0.369
AGTGCGTG: 0.327
AACCACAT: 0.321
ATGTGACG: 0.357
CCATGTGC: 0.487
